{"data": "Assay results gathered from unrelated publications", "note": "A part holds a random share of what one study measured. Positions count from the first letter of the parent shown."}
{"data": "Sample 1", "target": "CCNB1, cyclin fold, Cln2 fusion (human)", "technique": "yeast growth competition, sequencing", "matrix": "yeast", "notes": "strong parent motif", "reference": "not given", "reading": "higher = stronger binding", "parent": "MICAL3 docking peptide (human); LQLRRQLSFSEDS; partner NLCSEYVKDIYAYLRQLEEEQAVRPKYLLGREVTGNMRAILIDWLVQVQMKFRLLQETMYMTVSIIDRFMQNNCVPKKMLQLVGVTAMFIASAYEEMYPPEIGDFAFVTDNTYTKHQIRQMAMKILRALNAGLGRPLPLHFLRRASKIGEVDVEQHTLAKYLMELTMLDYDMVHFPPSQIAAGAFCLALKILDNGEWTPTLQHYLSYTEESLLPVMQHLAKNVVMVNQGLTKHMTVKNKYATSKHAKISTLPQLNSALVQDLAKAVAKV"}
{"Variant": "R4M", "normalised enrichment score": 3.33}
{"Variant": "L7K", "normalised enrichment score": 0.227}
{"Variant": "E11I", "normalised enrichment score": 1.49}
{"Variant": "Q2Y", "normalised enrichment score": 3.84}
{"Variant": "S8E", "normalised enrichment score": 2.45}
{"Variant": "R4Y", "normalised enrichment score": 3.77}
{"Variant": "L7E", "normalised enrichment score": 0.457}
{"Variant": "Q2V", "normalised enrichment score": 4.54}
{"Variant": "L7G", "normalised enrichment score": -0.0248}
{"Variant": "L7P", "normalised enrichment score": 0.282}
{"Variant": "F9H", "normalised enrichment score": -0.0558}
{"Variant": "D12V", "normalised enrichment score": 4.12}
{"Variant": "R4N", "normalised enrichment score": 3.55}
{"Variant": "S10W", "normalised enrichment score": 0.676}
{"Variant": "E11P", "normalised enrichment score": 2.17}
{"Variant": "Q2A", "normalised enrichment score": 4.71}
{"Variant": "Q2E", "normalised enrichment score": 4.2}
{"Variant": "D12C", "normalised enrichment score": 4.27}
{"Variant": "Q6K", "normalised enrichment score": 5.6}
{"Variant": "E11S", "normalised enrichment score": 3.99}
{"Variant": "S10Q", "normalised enrichment score": 3.02}
{"Variant": "L3T", "normalised enrichment score": 3.15}
{"Variant": "S8H", "normalised enrichment score": 2.15}
{"Variant": "L7A", "normalised enrichment score": -0.0698}
{"Variant": "S10T", "normalised enrichment score": 4.11}
{"data": "Sample 2", "target": "Phosphate system positive regulatory protein PHO4, full length, GST-tagged (PHO4, Saccharomyces cerevisiae, UniProt P07270, residues 1-312)", "technique": "competition protein-binding microarray", "molecule type": "double-stranded DNA, one strand shown", "matrix": "in vitro", "tested at": "2 µM", "notes": "whole 60-bp probe, lowest competitor level", "together with": "Cbf1 competitor, 0.05 µM", "reading": "higher = stronger binding", "Residues (chain)": "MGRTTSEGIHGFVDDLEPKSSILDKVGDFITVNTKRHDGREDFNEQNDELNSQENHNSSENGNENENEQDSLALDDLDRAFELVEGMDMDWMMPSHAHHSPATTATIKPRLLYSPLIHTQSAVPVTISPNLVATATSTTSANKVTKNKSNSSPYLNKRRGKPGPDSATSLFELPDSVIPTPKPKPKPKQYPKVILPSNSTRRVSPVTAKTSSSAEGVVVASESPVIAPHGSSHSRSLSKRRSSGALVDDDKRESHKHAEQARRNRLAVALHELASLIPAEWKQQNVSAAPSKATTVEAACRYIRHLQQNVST"}
{"Strand": "TCAGAAAAGACCATTTGCGTGCTTTTACCATTATGCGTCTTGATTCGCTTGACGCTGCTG", "fluorescence intensity": "6290 a.u."}
{"Strand": "ATAGGGCGCTCGGCTCTCGTGCTTTGCGGTGGGAGCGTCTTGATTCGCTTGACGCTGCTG", "fluorescence intensity": "7240 a.u."}
{"Strand": "CGCCGGGCGGCTTTGCACGTTTGAACAAGTATATCCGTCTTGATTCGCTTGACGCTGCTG", "fluorescence intensity": "10400 a.u."}
{"Strand": "GCTGCTCTGTACTGTCACATGATTCTTTCCCAACTCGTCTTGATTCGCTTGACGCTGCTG", "fluorescence intensity": "6450 a.u."}
{"Strand": "ACCGGGAAAATCCAACACGTGATGGTCCGACATGGAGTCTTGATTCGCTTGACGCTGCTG", "fluorescence intensity": "16900 a.u."}
{"Strand": "AACTTCAACACCATCACCGTGAAGAACATAGAATTTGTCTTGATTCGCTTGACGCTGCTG", "fluorescence intensity": "4620 a.u."}
{"Strand": "TATTCAGAAACGAGTCACGTTGTGGAAAATCTCCCTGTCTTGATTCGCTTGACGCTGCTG", "fluorescence intensity": "11500 a.u."}
{"Strand": "ATCTGTGCCAACAAGTACATGACAACTGTCTCCGGTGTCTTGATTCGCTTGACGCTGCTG", "fluorescence intensity": "4460 a.u."}
{"Strand": "CATACCCAACCTTGAGGCGTGGGTGAAGATATTTGTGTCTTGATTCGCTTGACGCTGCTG", "fluorescence intensity": "8970 a.u."}
{"Strand": "CTTTCCCGATCTTGTCGGGTGGGTGTAGCACATTTGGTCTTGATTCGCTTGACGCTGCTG", "fluorescence intensity": "4800 a.u."}
{"Strand": "CATACCCAACCTTTTCACGTGTCTTAAGATATTTGTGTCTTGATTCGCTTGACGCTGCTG", "fluorescence intensity": "15000 a.u."}
{"Strand": "CTACGCGGGCTATTGCAGGTGAGCAAGACATAGAATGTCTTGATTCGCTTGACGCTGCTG", "fluorescence intensity": "4180 a.u."}
{"Strand": "CTCTTCCCTCTATTTCACGTGAGTAAGCACAGAATAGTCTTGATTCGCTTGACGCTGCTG", "fluorescence intensity": "11900 a.u."}
{"Strand": "TTAATGCAAAGTGGACACGTTCAGTTACTATTTCCTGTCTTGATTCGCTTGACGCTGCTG", "fluorescence intensity": "11300 a.u."}
{"Strand": "CATTCGTTGGTTTATTATGTGACGGTTTTTAGACTTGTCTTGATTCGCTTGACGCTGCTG", "fluorescence intensity": "4030 a.u."}
{"Strand": "ATCGAATTCCTTTGTAACGTGCAAAGCATTTTATAGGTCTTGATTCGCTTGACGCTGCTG", "fluorescence intensity": "11100 a.u."}
{"Strand": "CAAGTTGTCTTTCAGCACATGGAGAGGTGGGAGTGCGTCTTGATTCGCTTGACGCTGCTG", "fluorescence intensity": "8920 a.u."}
{"Strand": "GCAAGATCTAACGGCCACGTATTCTGGGCTTGGAGAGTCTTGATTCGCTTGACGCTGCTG", "fluorescence intensity": "5070 a.u."}
{"Strand": "CTAACGAAGGTTTGTCACTAGACTTACAAGCCAAGTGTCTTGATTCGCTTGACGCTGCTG", "fluorescence intensity": "3010 a.u."}
{"data": "Sample 3", "target": "RNA binding protein fox-1 homolog 2, RRM domain, GST-SBP tag (RBFOX2, Homo sapiens, UniProt O43251-10, residues 100-194)", "technique": "RNA Bind-n-Seq", "molecule type": "RNA", "matrix": "in vitro", "tested at": "365 nM", "notes": "natural RNA segment, single round, ends assumed", "reference": "no-protein control", "reading": "higher = stronger binding", "Target sequence (chain)": "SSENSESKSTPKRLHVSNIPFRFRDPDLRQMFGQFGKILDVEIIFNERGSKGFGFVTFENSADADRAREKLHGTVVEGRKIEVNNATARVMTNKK"}
{"Strand": "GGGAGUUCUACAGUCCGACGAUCCAGCCCUUCAAGUUCUUUUAUUUCUGGGUAACAGAAGUAGACAGACAGGUUACUUGGUGUAUCUUCUGUUAAAGAGGAUUGCACGAGUGUGUUUUCCUCACACACUUUGAUGGAAUUCUCGGGUGCCAA", "RBNS enrichment (R)": 0.313}
{"Strand": "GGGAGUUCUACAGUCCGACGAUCUUUAAUUCUAAUACGAUGUCAUGUUAAUUUCAUGUUGUGAUUAAUAAAAGCAUUUUUUCUUCACUCAGUUUUAUAUAGGUUCCUGAACUCUAUCCACAUGCCGCCAUAGCUGGAAUUCUCGGGUGCCAA", "RBNS enrichment (R)": 0.749}
{"Strand": "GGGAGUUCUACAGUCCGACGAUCUUUAAGCUGCAAAUUGAGUACACUGGGAAUCAACAAAUUUGAUGAAGCCUGUCUGUCUCUUCACCAGUGGAGUGAGUGCAGCAGUUAGAAAGAGAAGCAAUAUUGUGCAAUGGAAUUCUCGGGUGCCAA", "RBNS enrichment (R)": 0.423}
{"Strand": "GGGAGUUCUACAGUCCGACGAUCGACAUUUUGCUAGGAAGUGACCGAGUCUAGGAAUGCUUUUAUUCAAGACACCAAAUUCCAAACUUCUAAAUGUUGGAAUUUUCAAAAAUUGUGUUUAGAUUUUAUGAAAAUGGAAUUCUCGGGUGCCAA", "RBNS enrichment (R)": 0.424}
{"Strand": "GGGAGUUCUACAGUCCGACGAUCGACUCUUUAAUGUCAAAAAAACUGAAGGGCAGAAAAAAGGUUCCUUACAUCAAAAUGAAAGUAAUUACAUUAAUAGAAAACUUCCAAGUGGAAUAUUGUUCACAGGCAGCUGGAAUUCUCGGGUGCCAA", "RBNS enrichment (R)": 0.513}
{"Strand": "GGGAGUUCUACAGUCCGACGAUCGGGCCACACUGGCCUAGCCUGAACCUAGAUCCCUAACCCUGGGCUGGGUGAGGCUCACCUGCCCAGGACCACAGUGGGACAGCCUGGGCAGGUGGGUGGCACAGCAUAAGUGGAAUUCUCGGGUGCCAA", "RBNS enrichment (R)": 0.4}
{"Strand": "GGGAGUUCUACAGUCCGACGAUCAACCCCAUACUUCACCUAAUGGUAGGGGCUUGCUUGUUUUGCACAGGAUUAAUUAACAAGUUAAUUUUAAGGUGGCCACUGUACACUGCUCUAAAGUCAUAUCCCCUCCCUGGAAUUCUCGGGUGCCAA", "RBNS enrichment (R)": 0.444}
{"Strand": "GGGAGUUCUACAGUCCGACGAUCAGUUUGUAUAUUUAUAGGUAACUCCAGCUGUUGAAUUUAUACUGGGAAUCUUCAUGAGAAGCUGAAAGAAAGGGAAAAAGAAAGUGGCUUUCUGCUUUCAAAAUUGAGGAUGGAAUUCUCGGGUGCCAA", "RBNS enrichment (R)": 1.09}
{"data": "Sample 4", "target": "ABI1, truncated, D143A, DHFR fusion (Arabidopsis thaliana, UniProt P49597)", "technique": "DHFR PCA, dose-response", "matrix": "yeast", "notes": "Hill fit, not affinity", "together with": "(+)-ABA, dose series", "reading": "lower = more sensitive", "parent": "PYL1, truncated, DHFR fusion (Arabidopsis thaliana, UniProt Q8VZS8); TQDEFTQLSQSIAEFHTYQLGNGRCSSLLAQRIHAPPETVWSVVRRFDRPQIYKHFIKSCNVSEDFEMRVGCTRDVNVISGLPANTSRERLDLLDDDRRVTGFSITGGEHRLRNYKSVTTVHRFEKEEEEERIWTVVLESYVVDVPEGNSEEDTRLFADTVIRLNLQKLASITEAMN"}
{"Variant": "N61T", "ABA EC50 [µM]": 2.72}
{"Variant": "D92V", "ABA EC50 [µM]": 60.7}
{"Variant": "K126A", "ABA EC50 [µM]": 1.96}
{"Variant": "S9R", "ABA EC50 [µM]": 6.49}
{"Variant": "T160F", "ABA EC50 [µM]": 2.04}
{"Variant": "F103Y", "ABA EC50 [µM]": 49.3}
{"note": "Some of these lines once more (sample 1):"}
{"Variant": "L7E", "normalised enrichment score": 0.457}
{"Variant": "S8E", "normalised enrichment score": 2.45}
{"Variant": "E11S", "normalised enrichment score": 3.99}
{"Variant": "D12C", "normalised enrichment score": 4.27}
{"Variant": "R4Y", "normalised enrichment score": 3.77}
{"Variant": "S10W", "normalised enrichment score": 0.676}
